# Results gathered from unrelated publications.
# Numbered parts are unrelated; each lists some results of a single study.

# Set 1 — method: RNA Bind-n-Seq; form: RNA; sample: in vitro; concentration: not given; relative to: input RNA pool; reading: higher = stronger binding
# Target: RING finger protein unkempt homolog, zinc fingers 1-6, GST-SBP tag (UNK, Homo sapiens, UniProt Q9C0B0, residues 30-357)
# Chain of UniProt Q9C0B0 (30-357, looked up): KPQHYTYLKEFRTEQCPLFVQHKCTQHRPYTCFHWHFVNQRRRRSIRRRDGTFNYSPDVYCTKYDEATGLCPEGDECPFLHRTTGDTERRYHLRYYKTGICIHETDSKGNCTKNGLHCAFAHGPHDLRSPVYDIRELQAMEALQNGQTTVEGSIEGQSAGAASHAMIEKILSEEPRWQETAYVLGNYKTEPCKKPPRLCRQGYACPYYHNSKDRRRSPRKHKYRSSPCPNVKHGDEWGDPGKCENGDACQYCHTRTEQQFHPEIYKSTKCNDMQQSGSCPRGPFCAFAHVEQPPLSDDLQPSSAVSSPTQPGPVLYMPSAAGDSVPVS
# Setting: RNA with constant flanks, human-mouse chimeric sites, ends assumed
# All sequences stand within: GGGAGUUCUACAGUCCGACGAUC … CAACAGAGGAUUGAGCAUCA
Strand,bound/input enrichment [ratio]
UAUAUCACCAAUGUCCUACAAAAUCCUGAUUUGGCUCUGAGAAUGGCUGUACGUAAUAACUUAGCUGGUGCUGAAGAACUCUUUGCCCGGAAAUUUAAUGCUCUCUUCGCCCAGGGAAAC,0.485
AAAGAGAAAGCUAAAACACUAAUAGAGAAGAGGAUUGGCAAAGAGAAUUUCAUAGAGAAACUAGGAUUUAUUAGCAAACAUGAGUUAUAUUCCAGAGCGUCUCAGAAACCCCAGCCAAAC,6.88
GGACAUCUGUCAAAUUGUUAUGUUCCUAAAAACGUAGUGAACACUCUGAUACACUUCAUUUAGUUGUACAUCUGUAUGAUAGAGAAAUGUAAAUAUGUUAAUCCAAGCAAUGUGUCACUU,0.347
AAAGAACUACUGAGGCAAGGCAGCAAAUUUAGGAGAGAUGUAUCAACAAUAUUGAUAGAGUUAGGAUUCCAAAUUAAAAAGAAAACUAAGACAUUAUAUAUCAACAAAGCCAAUGUGUGG,5.44
GGACAUCUGUCAAAUUGUUAUGUUCCUAAAAACGUAGUGAACACUCUGAUACACUUCAUCUGCUUGUACAUCUGUAUGAUAGAGAAAUGUAAAUAUGUUAAUCCAAGAUGAAUUCAACUU,0.251
CUCAUGGCUGCAGAAACAGGAAGUGGAAAAACUGGUGCAUUUAGUAUUCCCGUUAUCCAGAUAGUGUAUGAAACUCUGAAAGACCAACAGGAAGGCAAAAAAGGAAAAACAACUAUUAAA,0.677
AGAUUCCCUCUCUUAAAACCUCCUCCGAAAUUGGCAUCUCUUACAGAUGCCUCAUCCCCUGUUAGCGUUUUAGUUUGGACCACCCAGCCUUGGACAAUUCCCGCCAACCAGGCAAUUUGC,0.71
UAAGUCCUGUGCCAGCACUUCGCUCAUUAUAUUUUAAAUUCUGGACCAAUUGUGUUUGUUUCCUGAUUAUUGUAUCCAAUACUUUGCCUAGUAUGUAACUCACUCUUACUGAUAAUAAAA,4.19
AAUUUCCUGUCAUACUUUUUAGACAUUCACAUCAGACGCCUUACUACCCUGGCCACAUUCUAGGUUUGAAUUAUUUCUCAGCUAUGGAUAUGAUCAAAUGAGAACACUGCUUAACUAAUG,0.637
AGUGUGCAGGAAUUCAUGACCUUCACGAGUCAACUGAUUGUGGAACGCUCGGGGAAAGGCAGCAGAGCUUCUGUCAAAGAACAAGACUAUCUUUGCCAUGUCUACGUCCGGAGCGACAGU,0.104
AAACAUCUGUCUUUAAGCAUUCCAAGCGAGAAUGCUGGGGUGAUCAUUGUUGCCCAUGUGCCUUCUGACUGAGCUUUAAUGCUGUUCCAUGUUACAUUGAUGUUCUUCUCCAGAAUUGUU,0.154

# Set 2 — method: RNA Bind-n-Seq; form: RNA; sample: in vitro; concentration: 365 nM; relative to: no-protein control; reading: higher = stronger binding
# Target: RNA binding protein fox-1 homolog 2, RRM domain, GST-SBP tag (RBFOX2, Homo sapiens, UniProt O43251-10, residues 100-194)
# Setting: natural RNA segment, single round, ends assumed
# All sequences stand within: GGGAGUUCUACAGUCCGACGAUC … UGGAAUUCUCGGGUGCCAA
# Residues (chain): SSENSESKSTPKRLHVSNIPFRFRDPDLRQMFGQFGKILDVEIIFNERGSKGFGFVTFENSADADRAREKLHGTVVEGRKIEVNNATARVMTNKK
Strand,RBNS enrichment (R)
ACCCUUGAAGCGUCCAACUCAUGUGCAUGAUCAUGCAAGCUGUUUUCAUGGCUCACCCCUCUGUGUCCAGCAUCUAACCUUUUACUUCUGUGUAGGAAAUAAUUUAAUUA,4.16
ACAAGGAGAGGAGCUUGCUAAAGUUUAAAGUUUAUUUCAACGCUAAGAUCCCAACCUUCCGAUCUCUGCCUACUCUCAGACUUGGCCAGCCCUCUUGCCUGUCAUCCCAA,0.37
GCUUGCUUCCAUUGAUCAGUCUUUUACUUGAGGCAUUAAAUAUCUAAUUAAAUCGUGAAAUGGCAGUAUAGUCCAUGAUAUCUAAGGAGUUGGCAAGCUUAACAAAACCC,0.446
CCUUUAUCUUGGAUUUCUAAAGUUUUUCCCCAAUAUUGGGAAUGGUGAGGGUGGGGAUGAGAGACUCUCUGAACAAUUCUUGCAGAACCAGUGACAAUCUUAUGAAUAUA,0.384
UUUCAAUUUCCUGGGACUAUCCCAGAGAAAGACCUCAGUCUCUUCUAUUCACACUAUGCUUCCUAGAGACAGAACAAAAAUCAUGUAGGGAAAUUGGGGCUAAUGAGAUC,0.284
AAGGAGUCUGGGUGGAAGCAAAUUGUUUUUAAUGGACUUGCAUCUCCUCACCUUGAUCAGGACUAAAGGACGGAGGCCACUCCACCCCUUCCCCUUCUUCCAAAUCCCUA,0.247
AGAACUUUGGGAGGCCAAGGCAGGUGGAUCACUUGAGGUCAGGAGUUCGAGACUAGCCUGGCCAACAUGGUGAAACCCCAUCUCUACUAAAAAUACAACAGCCAGGUGUG,0.562
AGUGCUUUUCUUCUUGGGCUCCCUUCUGACCUGCAGGACAGUUUUCCUGGAGCCAUUUGGUAUGAGGUAUUAAUUUAGCUUAACUAAAUUACAGGGGACUCAGAGGCCGU,0.379
CCCCACUCCCAGCCCCUUUUCCUCUAUGUGACAGCUCCCUAGGACCCCUCUGCCUUCCUCCCCAAUCCUGACUGGCUCCUAGGGAAGGGGAAGGCUCCUGGAGGGCAGCC,0.834
UUAAUAAAAGUUGUAUGAUAAAUCAUUAAAAAUGCGAGUGUAAAUAUUUUUUUUUACCUCUAUCAGGGUUUUUAUUUGAAAGUGUGCUCUUACCAUUUCCUUGUUUGAGU,0.763
UCAGAUGACGUCCCCAUGGUGAUAGCCUGAAGAGCUUUCCUCACUAGAAACCAAAUGGUGUAAAUAUUUUAUUUGAUAAAGAUAGUUGAUGGUUUAUUUUAAAAGAUGCA,2.97
UUCCCACAAAUUCCUCACUUUUAGACACACUCUAAGCUUACUUCUGGCCUGGAUGCUUCCUCUCCCUGUCUCUCCCUUGCCCCACAGCGGUUCCCUGACAGCAGACAAGG,1.06

# Set 3 — method: protein binding microarray; form: double-stranded DNA, one strand shown; sample: in vitro; concentration: not given; relative to: not given; reading: higher = stronger binding
# Target: Histone acetyltransferase KAT6A, winged helix 2, GST fusion (KAT6A, Homo sapiens, UniProt Q92794, residues 85-181)
# Setting: 8-mer, flanks averaged, mean of 2 arrays, mostly near background
# Residues (chain): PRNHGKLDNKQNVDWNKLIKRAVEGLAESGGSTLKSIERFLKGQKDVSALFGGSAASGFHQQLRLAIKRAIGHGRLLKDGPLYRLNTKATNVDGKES
Strand,E-score
GTGAAAGA,0.0122
CCCGTGTC,0.158
TCACGCCA,0.0359
AGATAAGA,0.0432
ATACTCAC,0.0106
ATACATTG,-0.103
CTATGGGA,-0.0881
ACCGCACC,0.118
CCACGCTC,-0.052
CGTGGGTA,-0.064
GAGCATAA,0.049
CTCTAAAG,0.0368
AACAACAG,0.036
CCGTACAA,-0.0812
GTACCTAA,-0.15
AAGTCTGG,-0.166

# Set 4 — method: RNA Bind-n-Seq; form: RNA; sample: in vitro; concentration: 1 µM; setting: whole 134-nt RNA, ends assumed; with: 150 mM KCl; relative to: input library; reading: higher = stronger binding
# Target: Ras GTPase-activating protein-binding protein 1, C-terminal RGG region (G3BP1, Homo sapiens, UniProt Q13283)
# Chain of UniProt Q13283 (whole entry, looked up): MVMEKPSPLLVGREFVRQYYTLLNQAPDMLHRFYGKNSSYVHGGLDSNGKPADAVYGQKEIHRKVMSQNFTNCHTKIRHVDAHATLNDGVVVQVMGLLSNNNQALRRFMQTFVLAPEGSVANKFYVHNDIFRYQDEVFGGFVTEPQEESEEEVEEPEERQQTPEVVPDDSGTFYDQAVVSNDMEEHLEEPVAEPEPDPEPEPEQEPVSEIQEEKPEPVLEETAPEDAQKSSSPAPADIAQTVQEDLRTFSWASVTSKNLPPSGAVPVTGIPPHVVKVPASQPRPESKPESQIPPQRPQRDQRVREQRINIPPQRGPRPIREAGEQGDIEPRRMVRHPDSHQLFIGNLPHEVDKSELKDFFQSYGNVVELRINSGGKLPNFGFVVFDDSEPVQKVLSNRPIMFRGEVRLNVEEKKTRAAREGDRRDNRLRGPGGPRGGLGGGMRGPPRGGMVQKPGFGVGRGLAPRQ
# All sequences stand within: GGGAGUUCUACAGUCCGACGAUC … UGGAAUUCUCGGGUGUCAAGG
Strand,log2 enrichment
AAGUCCUGUGCUACACAUCGUAUGUACCGAAUCGGUUUGGUUUUUGGUUUUUUUGGAAAGUAUUAUGUUACGCCGUUCGGAUCUGCACUU,-1.77
CCUCAAGUCCUGUGCUACACAUCGUAUGUACCGAAUCGGUGGGUGGGGUGGGGAAAGUAUUAUGUUACGCCGUUCGGAUCUGCACUUCCA,0.596
UGGCCCUGGUGGCAUGCGGAGAGGAAGAGGUGGCCUCAUGGAUCGUGGUGGUCCCGGUGGAAUGUUCAGAGGUGGCCGUGGUGGAGACAG,1.78
AUAUGAGUAAAAUCUGUCCCUUUUUCCCCCUUUGAAUGAGGUCUUCCAUGUUUGAGGGAAAGUCUUGCACUAUUGCAUAUAUUUUGGGGA,-0.995
AGUCCUGUGCUACACAUCGUAUGUACCGAAUCGGGUUUUUGGUUUUUGGGUUUUUGGGAAAGUAUUAUGUUACGCCGUUCGGAUCUGCAC,-1.43
UAACUUUAGAGGAGGAUCUGAUGGAUAUGGCAGUGGACGUGGAUUUGGGGAUGGCUAUAAUGGGUAUGGAGGUGGACCUGGAGGUGGCAA,-1.08
UCCUCAAGUCCUGUGCUACACAUCGUAUGUACCGAAUCGGAGGUUUGGAGGAAAGUAUUAUGUUACGCCGUUCGGAUCUGCACUUCCAGC,-1.22
UCCUCAAGUCCUGUGCUACACAUCGUAUGUACCGAAUCGGCGGGCGGGGCGGAAAGUAUUAUGUUACGCCGUUCGGAUCUGCACUUCCAG,-0.543
UAACUUUAGAGGAGGAUCUGAUGGAUAUGGCAGUGGACGUGGAUUUGGGGAUGGCUAUAAUGGGUAUGGAGGAGGACCUGGAGGUGUCAA,-0.539
AAAUAUCAGUGAUCAUCGCAAGGAAGGAGGCAGACAAGAGUAAGGCACACCUGACUCUUAGGACUAGCAGUCAGAACCAGGAGGAAAGGU,-1.21
AGUCCUGUGCUACACAUCGUAUGUACCGAAUCGGGGAGGGGAGGGGAAAAAAAGGGGAAAGUAUUAUGUUACGCCGUUCGGAUCUGCACU,1.55
GUCCUGUGCUACACAUCGUAUGUACCGAAUCGGGUUUUUGGGUUUUUGGGGUUUUUGGGAAAGUAUUAUGUUACGCCGUUCGGAUCUGCA,-0.038
UCCUGUGCUACACAUCGUAUGUACCGAAUCAAACCCCCCCAAAUUUUUAAACCCCCAAAAAAGUAUUAUGUUACGCCGUUCGGAUCUGCA,-0.589
UCCUGUGCUACACAUCGUAUGUACCGAAUCAAAUUUAAAUUUUUUUAAAUUUUUUUAAAAAAGUAUUAUGUUACGCCGUUCGGAUCUGCA,-1.45

# Excerpt of the above (set 1):
Strand,bound/input enrichment [ratio]
AGUGUGCAGGAAUUCAUGACCUUCACGAGUCAACUGAUUGUGGAACGCUCGGGGAAAGGCAGCAGAGCUUCUGUCAAAGAACAAGACUAUCUUUGCCAUGUCUACGUCCGGAGCGACAGU,0.104
GGACAUCUGUCAAAUUGUUAUGUUCCUAAAAACGUAGUGAACACUCUGAUACACUUCAUCUGCUUGUACAUCUGUAUGAUAGAGAAAUGUAAAUAUGUUAAUCCAAGAUGAAUUCAACUU,0.251
AAAGAACUACUGAGGCAAGGCAGCAAAUUUAGGAGAGAUGUAUCAACAAUAUUGAUAGAGUUAGGAUUCCAAAUUAAAAAGAAAACUAAGACAUUAUAUAUCAACAAAGCCAAUGUGUGG,5.44
UAAGUCCUGUGCCAGCACUUCGCUCAUUAUAUUUUAAAUUCUGGACCAAUUGUGUUUGUUUCCUGAUUAUUGUAUCCAAUACUUUGCCUAGUAUGUAACUCACUCUUACUGAUAAUAAAA,4.19
AAUUUCCUGUCAUACUUUUUAGACAUUCACAUCAGACGCCUUACUACCCUGGCCACAUUCUAGGUUUGAAUUAUUUCUCAGCUAUGGAUAUGAUCAAAUGAGAACACUGCUUAACUAAUG,0.637
CUCAUGGCUGCAGAAACAGGAAGUGGAAAAACUGGUGCAUUUAGUAUUCCCGUUAUCCAGAUAGUGUAUGAAACUCUGAAAGACCAACAGGAAGGCAAAAAAGGAAAAACAACUAUUAAA,0.677
AGAUUCCCUCUCUUAAAACCUCCUCCGAAAUUGGCAUCUCUUACAGAUGCCUCAUCCCCUGUUAGCGUUUUAGUUUGGACCACCCAGCCUUGGACAAUUCCCGCCAACCAGGCAAUUUGC,0.71
GGACAUCUGUCAAAUUGUUAUGUUCCUAAAAACGUAGUGAACACUCUGAUACACUUCAUUUAGUUGUACAUCUGUAUGAUAGAGAAAUGUAAAUAUGUUAAUCCAAGCAAUGUGUCACUU,0.347
